Results gathered from unrelated publications.
Protocols differ between the studies behind these lines. Numbers after ± are the reported error.
TNKS2: Poly [ADP-ribose] polymerase tankyrase-2 (TNKS2, Homo sapiens, UniProt Q9H2K2)
DRD3: D(3) dopamine receptor (DRD3, Homo sapiens, UniProt P35462)
CDK2 with cyclin A: Cyclin-dependent kinase 2, with cyclin A (CDK2, Homo sapiens, UniProt P24941)

SMILES | tested on | test | system | conditions | how to read | measurement | value
CC[C@@H]1[C@H](F)C(=O)N[C@@H]1COc1nccc2cc(C(N)=O)c(OC)cc12 | Wee1-like protein kinase (WEE1, Homo sapiens, UniProt P30291) | ATP-site probe binding, ActivX profiling | THP-1 cell lysate | Lys2 site | – | IC50 | > 5 µM
Cc1nn(-c2nc3ccccc3s2)c(O)c1C(c1ccccc1C(=O)O)c1c(C)nn(-c2nc3ccccc3s2)c1O | Cyclic GMP-AMP synthase (CGAS, Homo sapiens, UniProt Q8N884) | enzyme activity, pyrophosphatase-coupled | – | mean of 3 experiments | – | IC50 | 6.07 µM
CCn1ncc2c1-c1cnc(N)c(c1)O[C@H](C)c1cc(F)ccc1-c1nn(C)nc1C2 | NTRK1/Tropomyosin alpha-3 chain (Homo sapiens, UniProt P04629+P06753) | cell viability | – | – | – | IC50 | 0.33 µM
CC(C)C[C@H](NC(=O)C[C@H](O)[C@H](CC(C)C)NC(=O)[C@H](Cc1c[nH]cn1)NC(=O)CNC(=O)[C@@H](NC(=O)[C@H](C)NC(=O)[C@H](Cc1c[nH]c2ccccc12)NC(=O)[C@H](CCC(N)=O)NC(=O)[C@@H](Cc1ccccc1)NC(=O)COCCOCCNC(=O)CCC(C(=O)O)N1CCN(CC(=O)O)CCN(CC(=O)O)CCN(CC(=O)O)CC1)C(C)C)C(N)=O (stereo partly shown) [lutetium-177 labelled] | – | – | BALB/c nu/nu mice, bladder | intravenous, 750 pmol, 1 h, added: PA 300 µg | – | tissue uptake | 51 ± 26 %ID/g
C=C(C)C1CC=C(C)CC1 (stereo not shown) | tyrosinase | – | – | added: L-tyrosine | – | IC50 | 13.3 ± 0.2 mg/mL
Cc1ccc(Cn2nnc3c4ccc(C(F)(F)F)cc4c(=O)[nH]c32)cc1 | TNKS2 | ADP-ribosyltransferase activity, inhibitor, NAD+ consumption fluorescence | – | – | – | IC50 | > 10 µM
CNCc1ccc(-c2[nH]c3cc(F)cc4c3c2CCNC4=O)cc1 | – | – | human patients | oral, 600 mg twice daily, grade 5 | – | diarrhoea incidence | 0%
Cc1[nH]c(C)c(S(=O)(=O)Nc2ccc(C(F)(F)F)c(Cl)c2)c1C(=O)N(C)Cc1ccccc1 | DRD3 | β-arrestin recruitment, antagonist, PathHunter | – | added: dopamine EC80 | – | IC50 | > 100 µM
O=P(O)(O)Oc1cccc(OP(=O)(O)O)c1OP(=O)(O)O | Phosphatidylinositol 3,4,5-trisphosphate 5-phosphatase 2 (INPPL1, Homo sapiens, UniProt O15357) | enzyme activity, inhibitor, malachite green phosphate | – | 5 min, 30 °C, His-tagged enzyme, added: Ins(1,3,4,5)P4 100 µM | – | IC50 | > 1000 µM
Cc1[nH]c(C)c(S(=O)(=O)Nc2ccc(N(C)C)c(Cl)c2)c1C(=O)N1CCC(F)(F)C1 | DRD3 | Go activation, antagonist, BRET | – | added: dopamine | – | IC50 | > 100 µM
O=c1[nH]c2c(nnn2-c2ccccc2)c2ccc(F)cc12 | TNKS2 | ADP-ribosyltransferase activity, inhibitor, NAD+ consumption fluorescence | – | – | – | IC50 | > 10 µM
CN1CCN(c2ccc(Nc3ncc4cc(C#N)c(=O)n(C5CCCC5)c4n3)cc2)CC1 | Tyrosine-protein kinase Mer (MERTK, Homo sapiens, UniProt Q12866) | – | – | – | – | IC50 | 3.27 µM
Cc1ccc(NS(=O)(=O)c2c(C)[nH]c(C)c2C(=O)N2CCC(F)(F)C2)cn1 | DRD3 | β-arrestin recruitment, antagonist, PathHunter | – | added: dopamine EC80 | – | IC50 | > 100 µM
CC(=O)N[C@H]1[C@H]([C@H](O)[C@H](O)CO)OC(C(=O)O)=C[C@@H]1O | sialidase | enzyme activity, inhibitor | human, healthy human microbiome sample | added: 4-MUNANA | – | IC50 | 11 ± 1 µM
N#CSc1cc(SC#N)c(N)nc1N | Ubiquitin thioesterase OTUB1 (OTUB1, Homo sapiens, UniProt Q96FW1) | deubiquitinase activity, inhibitor, MALDI-TOF DUB | – | 30 °C, 35 min pre-incubation | – | IC50 | 2.16 µM
C=CC(=O)c1ccc2ccccc2c1 | Coagulation factor XIII A chain (F13A1, Homo sapiens, UniProt P00488) | crosslinking activity | – | added: DTT | – | IC50 | > 20 µM
CCN(Cc1cnc2nc(N)nc(N)c2n1)c1ccc(C(=O)c2ccccc2)cc1 | Pteridine reductase (PTR1, Trypanosoma brucei brucei, UniProt O76290) | – | – | estimated, tight-binding limit | – | IC50 | ≤ 0.0001 µM

SMILES | tested on | test | system | conditions | how to read | measurement | value
Cc1ccc(NS(=O)(=O)CCC(=O)N[C@@H](C)CC(=O)N2CCCC2)cc1Cl | DRD3 | β-arrestin recruitment, antagonist, PathHunter | – | added: dopamine EC80 | – | IC50 | > 100 µM
O=C(/C=C/c1cccc(OS(=O)(=O)Oc2ccc(C(F)(F)F)cc2)c1)NO | Histone deacetylase 3, with NCoR2 DAD (HDAC3, Homo sapiens, UniProt O15379) | enzyme activity, inhibitor, fluorogenic | – | added: substrate 20 µM | – | IC50 | 0.194 µM
CC(C)(C)c1ccc(Cn2nnc3c4ccc(F)cc4c(=O)[nH]c32)cc1 | TNKS2 | ADP-ribosyltransferase activity, inhibitor, NAD+ consumption fluorescence | – | – | – | IC50 | 0.0933 µM
CNC(=O)CCOCCC(=O)N1CC2CCC(C1)C2NCc1cc(-c2cc(O)ccc2OC(F)(F)F)ccc1F (stereo not shown) | Estrogen receptor (ESR1, Homo sapiens, UniProt P03372, Y537S) | – | – | – | – | IC50 | ~1 µM
CCCCn1c(=O)c2cc(F)ccc2c2nnn(Cc3ccc(C)cc3)c21 | TNKS2 | inhibitor | – | – | – | IC50 | > 10 µM
Cc1[nH]c(C)c(S(=O)(=O)Nc2ccc(S(C)(=O)=O)c(Cl)c2)c1C(=O)N1CCC(F)(F)C1 | DRD3 | β-arrestin recruitment, antagonist, PathHunter | – | added: dopamine EC80 | – | IC50 | > 100 µM
COc1ccc(-n2c(SCC(N)=O)nnc2-c2cccs2)cc1 | CDK2 with cyclin A | – | – | – | – | Kd | > 100 µM
CC(C)Oc1c(NC(=O)c2ccc(NC(=O)[C@H](CC(N)=O)NC(=O)c3ccc(/N=N/c4ccc(N(C)C)cc4)cc3)cc2)ccc(C(=O)Nc2ccc(C(=O)O)cc2)c1O | DNA gyrase (gyrA/gyrB, Escherichia coli, UniProt P0AES4+P0AES6) | DNA supercoiling, inhibitor | – | 30 min, 37 °C, dark thermally adapted state, added: relaxed pUC19 DNA | – | IC50 | 0.5 µM
COc1cccc(Cn2nnc3c4ccccc4c(=O)[nH]c32)c1 | TNKS2 | inhibitor | – | – | – | IC50 | 0.0955 µM
Cc1ccc(NS(=O)(=O)c2c(C)[nH]c(C)c2C(=O)N2CC(F)(F)C(F)(F)C2)cc1Cl | DRD3 | β-arrestin recruitment, antagonist, PathHunter | – | added: dopamine EC80 | – | IC50 | > 100 µM
CC(C)C[C@H](N)C(=O)N[C@@H](C)C(=O)N[C@@H](CCCCN)C(=O)N[C@H](C(=O)N[C@@H](CCCCN)C(=O)N[C@@H](CCCNC(=N)N)C(=O)N[C@@H](CCCCN)C(=O)N[C@@H](CCCNC(=N)N)C(=O)N[C@@H](CCCCN)C(=O)N[C@@H](CCCCN)C(=O)O)[C@@H](C)O | Coagulation factor V, activated factor Va (F5, Homo sapiens, UniProt P12259) | prothrombinase activity, inhibitor | – | – | – | IC50 | 17 µM
Cn1cc(-c2ccc(-c3cncc(Cl)c3N3CCC4(CCNC4=O)CC3)cc2)cn1 | COLO 205 | gene expression, microarray, measured: HIVEP2 mRNA | – | concentration not given, 6 h | reference: untreated cells | log2 fold change | 1.64
O=C(COc1ccc(Cl)cc1Cl)N/N=C/c1cc2c(s1)CCCC2 | 1-deoxy-D-xylulose-5-phosphate synthase (dxs, Deinococcus radiodurans, UniProt Q9RUB5) | inhibitor | – | – | – | IC50 | 101 ± 15.1 µM
Cc1[nH]c(C)c(S(=O)(=O)Nc2ccc(C3(C)CCO3)c(Cl)c2)c1C(=O)N1CCC(F)(F)C1 (stereo not shown) | DRD3 | Go activation, antagonist, BRET | – | added: dopamine | – | IC50 | > 100 µM
O=C(O)CC(=O)C(=O)O | Hypoxia-inducible factor 1-alpha inhibitor (HIF1AN, Homo sapiens, UniProt Q9NWT6, Y93A) | enzyme activity, inhibitor | – | pH 7 | – | IC50 | > 1000 µM
Cc1c(C(=O)N(C)C)c(S(=O)(=O)Nc2ccc(C(F)(F)F)c(Cl)c2)c(C)n1C | DRD3 | Go activation, antagonist, BRET | – | added: dopamine | – | IC50 | > 100 µM
COC(=O)c1ccc(NC(=O)CSc2nnc(-c3ccc(NC(C)=O)cc3)n2C)cc1 | CDK2 with cyclin A | – | – | – | – | Kd | > 100 µM

Repeated from above:
SMILES | tested on | test | system | conditions | how to read | measurement | value
CC(=O)N[C@H]1[C@H]([C@H](O)[C@H](O)CO)OC(C(=O)O)=C[C@@H]1O | sialidase | enzyme activity, inhibitor | human, healthy human microbiome sample | added: 4-MUNANA | – | IC50 | 11 ± 1 µM
N#CSc1cc(SC#N)c(N)nc1N | Ubiquitin thioesterase OTUB1 (OTUB1, Homo sapiens, UniProt Q96FW1) | deubiquitinase activity, inhibitor, MALDI-TOF DUB | – | 30 °C, 35 min pre-incubation | – | IC50 | 2.16 µM
